# Measured values of several laboratories.
# Protocols differ between the studies behind these lines. Several values in a cell are separate wells, animals, samples, runs or records.
Structure (SMILES),target,test,setting,how to read,remaining binding
Cc1cnc2nc1Nc1cccc(c1)COC/C=C/COCc1cc(ccc1OCCN1CCOCC1)N2,"ABL1 (Homo sapiens, UniProt P00519, T315I)",,0.1 µM,relative to: DMSO control,74% and 100%
CCN1CCN(Cc2ccc(C(=O)Nc3ccc(C)c(NCc4cnc5[nH]ccc5c4OC)c3)cc2C(F)(F)F)CC1,"Tyrosine-protein kinase ABL1, non-phosphorylated (ABL1, Homo sapiens, UniProt P00519, F317I)","binding, competition with immobilised ligand",1 µM,,2.4%
C=CC(=O)N1CCc2ccc(-n3c(=O)ccc4cnc5ccc(-c6cnn(C)c6)cc5c43)cc21,"Tyrosine-protein kinase ABL1, non-phosphorylated (ABL1, Homo sapiens, UniProt P00519, H396P)","KINOMEscan, measured: (H396P)-nonphosphorylated",1 µM,relative to: control,83%
COc1cc(Nc2nccc(-c3cnn4nc(OC)ccc34)n2)cc(C(F)(F)F)c1,"Tyrosine-protein kinase ABL1, phosphorylated (ABL1, Homo sapiens, UniProt P00519, T315I)",binding,1 µM,,100%
CNC(=O)C1CCN(c2cc(C)c(F)cc2NC(=O)c2ccc(-c3cc(O)ccc3C)c(C)c2)CC1,"Tyrosine-protein kinase ABL1, phosphorylated (ABL1, Homo sapiens, UniProt P00519, M351T)","binding, competition with immobilised ligand",1 µM,,17%
CNC1C[S+]2CC[S+]3CC[S+](C1)[Ru-4]321([N]=C=S)[n]2c3ccc(OC)cc3c3c4c(c5cc(F)c[n+]1c5c32)C(=O)NC4=O (stereo not drawn),"Tyrosine-protein kinase ABL1, phosphorylated (ABL1, Homo sapiens, UniProt P00519, F317L)",KinomeScan,0.1 µM,relative to: untreated,100%
Cc1ccc(-c2c(/C=C(\C#N)C(=O)NC(C)C)n(CCCO)c3ncnc(N)c23)cc1,"Tyrosine-protein kinase ABL1, phosphorylated (ABL1, Homo sapiens, UniProt P00519, Y253F)","binding, competition with immobilised ligand",1 µM,,100%
Nc1ncc2c(n1)-c1c([nH]c3ccc(C4=CCOCC4)cc13)CCC2,"Tyrosine-protein kinase ABL1, phosphorylated (ABL1, Homo sapiens, UniProt P00519)","binding, competition with immobilised ligand",1 µM,,100%
CC(C)=CC1OC(C)(C)C2C=C3C(=O)C(Cl)=CC(O)C3C3C(O)C4OC4C(=O)C132 (stereo not drawn),"Tyrosine-protein kinase ABL1, non-phosphorylated (ABL1, Homo sapiens, UniProt P00519, T315I)","cell-free assay, competition with immobilised ligand",10 µM,,87%

# Excerpt of the above:
Structure (SMILES),target,test,setting,how to read,remaining binding
CC(C)=CC1OC(C)(C)C2C=C3C(=O)C(Cl)=CC(O)C3C3C(O)C4OC4C(=O)C132 (stereo not drawn),"Tyrosine-protein kinase ABL1, non-phosphorylated (ABL1, Homo sapiens, UniProt P00519, T315I)","cell-free assay, competition with immobilised ligand",10 µM,,87%
